Measured values pooled from the literature.
± gives the spread as reported.

| Compound | test system | conditions | tissue uptake |
| --- | --- | --- | --- |
| CC(C)[C@H](NC(=O)[C@@H]1CCCN1C(=O)[C@H](CCCNC(=N)N)NC(=O)[C@H](CS)NC(=O)[C@H](Cc1c[nH]c2ccccc12)NC(=O)[C@H](CCCNC(=N)N)NC(=O)[C@@H](Cc1ccccc1)NC(=O)[C@H](Cc1c[nH]cn1)NC(=O)[C@H](CCC(=O)O)NC(=O)[C@H](CS)NC(=O)[C@H](CS)NC(=O)[C@@H]1CC(=O)N[C@@H](CCCNC(=N)N)C(=O)NCC(=O)N[C@@H](CC(=O)O)C(=O)N[C@H](Cc2ccc(O)cc2)C(=O)N1)C(N)=O [technetium-99m labelled] | C57 mouse, female, B16/F1 melanoma, stomach | intravenous, 0.037 MBq, 24 h | 0.69 ± 0.25 %ID/g |
| O=C(O)C1CN(Cc2ccc(-c3noc(-c4ccc(OCC[18F])c(C(F)(F)F)c4)n3)cc2)C1 | Sprague-Dawley rat, male, normal, thymus | iv, 60 min | 0.161 ± 0.007 %ID/g |
| CC(C)[C@H](NC(=O)[C@@H]1CCCN1C(=O)[C@H](CCCNC(=N)N)NC(=O)[C@H](CS)NC(=O)[C@H](Cc1c[nH]c2ccccc12)NC(=O)[C@H](CCCNC(=N)N)NC(=O)[C@@H](Cc1ccccc1)NC(=O)[C@H](Cc1c[nH]cn1)NC(=O)[C@H](CCC(=O)O)NC(=O)[C@H](CS)NC(=O)[C@H](CS)NC(=O)CNC(=O)[C@@H]1CC(=O)N[C@@H](CCCNC(=N)N)C(=O)NCC(=O)N[C@@H](CC(=O)O)C(=O)N[C@H](Cc2ccc(O)cc2)C(=O)N1)C(N)=O [technetium-99m labelled] | C57 mouse, female, B16/F1 melanoma, heart | intravenous, 0.037 MBq, 4 h | 0.51 ± 0.2 %ID/g |
| CCCC[C@H](NC(=O)CNC(=O)CNC(=O)CN1CCN(CC(=O)O)CCN(CC(=O)O)CC1)C(=O)N[C@H]1CC(=O)NCCCC[C@@H](C(N)=O)NC(=O)[C@H](Cc2c[nH]c3ccccc23)NC(=O)[C@H](CCCNC(=N)N)NC(=O)[C@@H](Cc2ccccc2)NC(=O)[C@H](Cc2c[nH]cn2)NC1=O [copper-64 labelled] | female C57 mouse, B16/F1 melanoma, muscle | intravenous, 0.037 MBq, 24 h | 0.04 ± 0.03 %ID/g |
| CCCC[C@@H]1NC(=O)[C@@H](NC(=O)[C@H](CCC(=O)O)NC(=O)CNC(=O)CN2CCN(CC(=O)O)CCN(CC(=O)O)CCN(CC(=O)O)CC2)CCCCNC(=O)C[C@@H](C(N)=O)NC(=O)[C@H](C(C)C)NC(=O)[C@@H]2CCCN2C(=O)[C@H](CCCNC(=N)N)NC(=O)CNC(=O)[C@H](Cc2c[nH]c3ccccc23)NC(=O)[C@H](CCCNC(=N)N)NC(=O)[C@@H](Cc2ccccc2)NC(=O)[C@H](Cc2c[nH]cn2)NC(=O)[C@H](CCC(=O)O)NC1=O [gallium-67 labelled] | C57 mice with B16/F1 melanoma, spleen | intravenous, 0.037 MBq, 4 h | 0.06 ± 0.04 %ID/g |
| CCCC[C@H](NC(=O)CNC(=O)CNC(=O)CN1CCN(CC(=O)O)CCN(CC(=O)O)CCN(CC(=O)O)CC1)C(=O)N[C@H]1CC(=O)NCCCC[C@@H](C(N)=O)NC(=O)[C@H](Cc2c[nH]c3ccccc23)NC(=O)[C@H](CCCNC(=N)N)NC(=O)[C@@H](Cc2ccccc2)NC(=O)[C@H](Cc2c[nH]cn2)NC1=O [gallium-67 labelled] | C57 mice, female, B16/F1 melanoma, intestines | intravenous, 0.037 MBq, 0.5 h | 1.6 ± 0.3 %ID |
| OCc1cn(Cc2ccc(-c3noc(-c4ccc(OCC[18F])c(C(F)(F)F)c4)n3)cc2)nn1 | Lewis rat, female, brain | intravenous, 2 h | 0.61 ± 0.05 %ID/g |
| CCN(CC)c1ccc2c(-c3ccccc3C(=O)OCCOCCOCC[18F])c3ccc(=[N+](CC)CC)cc-3oc2c1 | rat, spleen | 60 min | 0.83 ± 0.1 %ID/g |
| CCCC[C@H](NC(=O)CNC(=O)CNC(=O)CN1CCN(CC(=O)O)CCN(CC(=O)O)CCN(CC(=O)O)CC1)C(=O)N[C@H]1CC(=O)NCCCC[C@@H](C(N)=O)NC(=O)[C@H](Cc2c[nH]c3ccccc23)NC(=O)[C@H](CCCNC(=N)N)NC(=O)[C@@H](Cc2ccccc2)NC(=O)[C@H](Cc2c[nH]cn2)NC1=O [copper-64 labelled] | female C57 mouse, B16/F1 melanoma, tumor | intravenous, 0.037 MBq, 24 h | 5.96 ± 0.36 %ID/g |
| O=C([O-])CN1CCN(CC(=O)[O-])CCN(CC(=O)[O-])CCN(CC(=O)[O-])CC1.[64Cu+2] | healthy athymic nude mice, kidney | intravenous, 24 h | 0.93 %ID/g |

Some of these lines once more:
| Compound | test system | conditions | tissue uptake |
| --- | --- | --- | --- |
| CCCC[C@H](NC(=O)CNC(=O)CNC(=O)CN1CCN(CC(=O)O)CCN(CC(=O)O)CCN(CC(=O)O)CC1)C(=O)N[C@H]1CC(=O)NCCCC[C@@H](C(N)=O)NC(=O)[C@H](Cc2c[nH]c3ccccc23)NC(=O)[C@H](CCCNC(=N)N)NC(=O)[C@@H](Cc2ccccc2)NC(=O)[C@H](Cc2c[nH]cn2)NC1=O [copper-64 labelled] | female C57 mouse, B16/F1 melanoma, tumor | intravenous, 0.037 MBq, 24 h | 5.96 ± 0.36 %ID/g |
